Published values pooled from the literature.
Compare with care: the assays were run in different laboratories. Values joined by “and” are separate records of one study, mostly repeats; a detail may differ. Numbers after ± are the reported error.
Chain of UniProt O76090 (whole entry, unmodified, looked up): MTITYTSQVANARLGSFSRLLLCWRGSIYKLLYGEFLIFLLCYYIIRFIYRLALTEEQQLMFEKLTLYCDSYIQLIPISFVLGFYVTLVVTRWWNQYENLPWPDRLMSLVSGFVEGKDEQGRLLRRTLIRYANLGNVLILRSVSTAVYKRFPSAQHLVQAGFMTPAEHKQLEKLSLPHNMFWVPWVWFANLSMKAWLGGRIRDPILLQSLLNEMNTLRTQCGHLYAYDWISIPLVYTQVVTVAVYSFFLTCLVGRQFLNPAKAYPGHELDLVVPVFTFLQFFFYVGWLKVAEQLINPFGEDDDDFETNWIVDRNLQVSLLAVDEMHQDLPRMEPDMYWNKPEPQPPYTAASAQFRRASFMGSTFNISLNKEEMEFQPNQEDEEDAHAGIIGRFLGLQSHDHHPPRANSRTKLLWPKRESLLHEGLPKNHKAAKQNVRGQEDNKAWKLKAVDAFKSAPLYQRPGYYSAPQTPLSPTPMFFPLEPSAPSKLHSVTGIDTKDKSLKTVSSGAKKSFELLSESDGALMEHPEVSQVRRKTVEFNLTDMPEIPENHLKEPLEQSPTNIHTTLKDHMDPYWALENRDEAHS
Chain of UniProt P05164 (whole entry, looked up): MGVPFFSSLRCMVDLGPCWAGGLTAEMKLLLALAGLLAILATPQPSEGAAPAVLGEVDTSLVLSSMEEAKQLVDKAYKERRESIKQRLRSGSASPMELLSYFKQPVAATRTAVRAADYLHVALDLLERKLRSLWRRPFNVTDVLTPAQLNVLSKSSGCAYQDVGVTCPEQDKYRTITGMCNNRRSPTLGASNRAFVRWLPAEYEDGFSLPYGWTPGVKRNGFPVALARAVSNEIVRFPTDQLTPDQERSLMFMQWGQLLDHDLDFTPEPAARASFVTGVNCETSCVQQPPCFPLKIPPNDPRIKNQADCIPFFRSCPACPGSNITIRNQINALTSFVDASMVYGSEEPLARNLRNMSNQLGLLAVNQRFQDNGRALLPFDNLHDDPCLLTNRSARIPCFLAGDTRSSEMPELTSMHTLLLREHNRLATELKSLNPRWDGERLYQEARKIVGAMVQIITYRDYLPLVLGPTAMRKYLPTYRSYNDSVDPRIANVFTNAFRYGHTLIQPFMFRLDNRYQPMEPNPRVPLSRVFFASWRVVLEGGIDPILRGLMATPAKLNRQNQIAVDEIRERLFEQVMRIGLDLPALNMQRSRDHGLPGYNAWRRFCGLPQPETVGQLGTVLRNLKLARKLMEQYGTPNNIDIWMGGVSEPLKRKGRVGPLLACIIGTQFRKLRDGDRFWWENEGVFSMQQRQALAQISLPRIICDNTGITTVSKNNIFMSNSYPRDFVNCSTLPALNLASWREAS
Chain of UniProt P60891 (whole entry, looked up): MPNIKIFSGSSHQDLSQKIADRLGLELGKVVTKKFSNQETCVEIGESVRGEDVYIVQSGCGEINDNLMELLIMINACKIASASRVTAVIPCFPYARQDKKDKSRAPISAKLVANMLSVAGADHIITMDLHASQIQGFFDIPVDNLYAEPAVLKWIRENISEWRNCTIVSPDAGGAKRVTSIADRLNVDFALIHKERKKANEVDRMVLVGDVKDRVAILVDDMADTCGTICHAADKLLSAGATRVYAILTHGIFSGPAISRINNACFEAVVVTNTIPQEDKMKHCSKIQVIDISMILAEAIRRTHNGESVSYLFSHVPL
Chain of UniProt Q8IV63 (whole entry, looked up): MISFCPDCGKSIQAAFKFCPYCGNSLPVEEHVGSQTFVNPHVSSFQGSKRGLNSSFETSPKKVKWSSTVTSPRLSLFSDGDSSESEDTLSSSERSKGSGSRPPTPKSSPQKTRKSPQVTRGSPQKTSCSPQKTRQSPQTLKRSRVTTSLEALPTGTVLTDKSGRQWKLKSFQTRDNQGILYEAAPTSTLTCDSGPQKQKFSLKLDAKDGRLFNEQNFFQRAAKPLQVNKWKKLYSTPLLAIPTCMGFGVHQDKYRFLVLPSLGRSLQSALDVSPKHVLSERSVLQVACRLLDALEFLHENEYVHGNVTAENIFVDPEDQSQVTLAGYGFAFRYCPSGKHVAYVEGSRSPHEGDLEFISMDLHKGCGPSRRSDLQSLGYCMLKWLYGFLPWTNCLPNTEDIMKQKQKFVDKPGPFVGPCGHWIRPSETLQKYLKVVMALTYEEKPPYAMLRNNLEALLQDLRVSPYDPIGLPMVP
Chain of UniProt P00519 (whole entry, unmodified, looked up): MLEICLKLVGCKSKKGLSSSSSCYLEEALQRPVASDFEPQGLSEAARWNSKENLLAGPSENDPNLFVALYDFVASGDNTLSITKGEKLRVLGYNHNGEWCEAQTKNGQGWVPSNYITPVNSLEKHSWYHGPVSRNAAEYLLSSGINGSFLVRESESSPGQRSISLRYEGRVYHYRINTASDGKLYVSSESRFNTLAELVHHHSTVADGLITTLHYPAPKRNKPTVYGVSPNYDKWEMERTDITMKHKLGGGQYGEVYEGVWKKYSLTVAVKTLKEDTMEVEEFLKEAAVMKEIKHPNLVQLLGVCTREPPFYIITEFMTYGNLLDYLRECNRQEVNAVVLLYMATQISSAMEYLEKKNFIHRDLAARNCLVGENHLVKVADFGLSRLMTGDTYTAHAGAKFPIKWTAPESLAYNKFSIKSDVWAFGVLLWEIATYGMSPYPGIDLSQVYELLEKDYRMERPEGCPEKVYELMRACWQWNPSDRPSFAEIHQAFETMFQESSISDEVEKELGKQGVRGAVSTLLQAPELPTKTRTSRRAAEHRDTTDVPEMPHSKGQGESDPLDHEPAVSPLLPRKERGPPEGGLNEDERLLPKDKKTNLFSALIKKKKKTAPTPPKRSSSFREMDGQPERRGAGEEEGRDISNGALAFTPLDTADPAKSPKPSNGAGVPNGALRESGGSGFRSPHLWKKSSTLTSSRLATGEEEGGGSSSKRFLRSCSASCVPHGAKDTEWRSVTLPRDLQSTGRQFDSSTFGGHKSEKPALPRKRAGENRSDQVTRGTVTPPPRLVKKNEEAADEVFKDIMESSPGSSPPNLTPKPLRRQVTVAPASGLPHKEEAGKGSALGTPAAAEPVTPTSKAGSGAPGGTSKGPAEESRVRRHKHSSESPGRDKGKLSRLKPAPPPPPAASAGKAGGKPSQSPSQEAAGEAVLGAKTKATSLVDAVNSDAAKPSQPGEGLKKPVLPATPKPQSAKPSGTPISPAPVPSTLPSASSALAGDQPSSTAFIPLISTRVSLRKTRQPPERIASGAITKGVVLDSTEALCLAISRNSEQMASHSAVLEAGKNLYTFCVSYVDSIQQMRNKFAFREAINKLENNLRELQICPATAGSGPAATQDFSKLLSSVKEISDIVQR
Chain of UniProt P11388 (whole entry, looked up): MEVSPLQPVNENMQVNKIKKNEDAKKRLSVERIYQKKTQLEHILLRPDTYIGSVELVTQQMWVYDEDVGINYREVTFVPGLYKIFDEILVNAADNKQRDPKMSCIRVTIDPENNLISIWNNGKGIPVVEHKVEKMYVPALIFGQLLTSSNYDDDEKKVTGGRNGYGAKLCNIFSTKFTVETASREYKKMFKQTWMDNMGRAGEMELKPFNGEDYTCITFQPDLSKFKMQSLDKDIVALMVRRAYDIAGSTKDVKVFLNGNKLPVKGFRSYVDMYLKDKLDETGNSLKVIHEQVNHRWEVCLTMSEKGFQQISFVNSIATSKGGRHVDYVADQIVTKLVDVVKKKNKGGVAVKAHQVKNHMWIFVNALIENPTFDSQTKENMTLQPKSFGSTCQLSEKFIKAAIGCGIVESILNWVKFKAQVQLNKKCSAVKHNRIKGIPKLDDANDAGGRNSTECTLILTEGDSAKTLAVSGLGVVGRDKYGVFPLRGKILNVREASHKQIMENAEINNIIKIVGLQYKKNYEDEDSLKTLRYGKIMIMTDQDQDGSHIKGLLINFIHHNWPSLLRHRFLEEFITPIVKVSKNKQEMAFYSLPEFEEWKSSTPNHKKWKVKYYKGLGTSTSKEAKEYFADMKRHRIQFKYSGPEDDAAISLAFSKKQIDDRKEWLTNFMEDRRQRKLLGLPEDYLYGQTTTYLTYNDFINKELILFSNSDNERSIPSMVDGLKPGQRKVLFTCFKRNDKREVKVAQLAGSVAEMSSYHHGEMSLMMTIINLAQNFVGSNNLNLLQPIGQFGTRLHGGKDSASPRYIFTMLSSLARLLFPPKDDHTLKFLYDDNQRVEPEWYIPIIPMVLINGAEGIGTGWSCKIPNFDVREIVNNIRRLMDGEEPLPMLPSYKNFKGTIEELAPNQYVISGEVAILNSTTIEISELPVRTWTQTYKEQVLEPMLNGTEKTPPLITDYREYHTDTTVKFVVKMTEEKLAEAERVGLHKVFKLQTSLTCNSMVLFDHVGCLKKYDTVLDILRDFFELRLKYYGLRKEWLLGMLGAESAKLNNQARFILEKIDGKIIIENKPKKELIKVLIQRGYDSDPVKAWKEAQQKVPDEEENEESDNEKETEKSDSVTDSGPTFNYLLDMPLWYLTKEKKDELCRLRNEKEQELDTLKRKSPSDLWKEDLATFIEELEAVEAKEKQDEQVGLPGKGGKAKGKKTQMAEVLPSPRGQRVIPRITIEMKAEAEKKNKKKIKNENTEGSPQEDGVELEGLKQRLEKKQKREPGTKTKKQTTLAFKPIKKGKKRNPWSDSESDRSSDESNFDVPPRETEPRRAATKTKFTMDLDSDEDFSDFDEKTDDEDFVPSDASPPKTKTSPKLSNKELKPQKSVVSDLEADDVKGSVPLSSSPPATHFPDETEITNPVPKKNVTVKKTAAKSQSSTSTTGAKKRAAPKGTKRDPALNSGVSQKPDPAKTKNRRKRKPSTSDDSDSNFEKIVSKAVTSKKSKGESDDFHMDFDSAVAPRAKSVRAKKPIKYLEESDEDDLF
Chain of UniProt Q9X6J6 (whole entry, looked up): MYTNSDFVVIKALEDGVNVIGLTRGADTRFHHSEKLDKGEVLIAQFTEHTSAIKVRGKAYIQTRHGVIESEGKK

| Compound | target | assay | system | conditions | scale | endpoint | value |
| --- | --- | --- | --- | --- | --- | --- | --- |
| C=CC(=O)N1CCC(C(=O)NCC(=O)N2CCN(c3nc(-c4cnc(N)nc4C(F)F)nc(N4CCOCC4)n3)CC2)CC1 | NUAK family SNF1-like kinase 2 (NUAK2, Homo sapiens, UniProt Q9H093) | KINOMEscan |  | 1 µM |  | remaining binding | 100% |
| CCCCNc1c(C(=O)OCC)c(C)nc2c1cnn2CC.Cl | GABA-A receptor; alpha-1/beta-2/gamma-2 (Rattus norvegicus, UniProt P18508+P62813+P63138) | membrane potential, agonist, QP-DHM fluorescence | HEK293 expressing GABAA |  | reference: GABA | maximal response | 43% |
| NC/C(=C\F)COc1cccc(Cn2c(=S)[nH]c(=O)c3[nH]cnc32)c1 | Myeloperoxidase (MPO, Homo sapiens, UniProt P05164) | inhibitor, cholesteryl ester hydroperoxide |  | 0.00023 µM | reference: control | LDL lipid peroxidation | 105% and 96.3% and 87.4% |
| CCCCCCCCCCCCC/C=C/[C@@H](O)[C@H](CO)NC(=O)CCCCCCCCCCCCCCC | Protein SET (SET, Homo sapiens, UniProt Q01105) | lipid binding, GFP pull-down LC-MS/MS | A549 overexpressing GFP-tagged protein | ER-targeted construct, unit not given | reference: vector-transfected cells | bound endogenous lipid | 7.2 |
| CC[C@H](C)[C@H](NC(=O)[C@H](CCCNC(=N)N)NC(=O)[C@H](Cc1c[nH]cn1)NC(=O)[C@H](CCCNC(=N)N)NC(=O)[C@H](CC(=O)O)NC(=O)[C@H](CC(=O)O)NC(=O)[C@@H](NC(=O)[C@H](CC(=O)O)NC(=O)[C@@H]1CCCN1C(=O)[C@@H](N)CC(C)C)[C@@H](C)O)C(=O)N[C@@H](CCC(=O)O)C(=O)N[C@@H](CCC(=O)O)C(=O)N[C@@H](CCCCN)C(=O)N[C@@H](CCCNC(=N)N)C(=O)N[C@@H](CCCCN)C(=O)N[C@@H](CCCNC(=N)N)C(=O)N[C@H](C(=O)N[C@@H](Cc1ccc(O)cc1)C(=O)N[C@@H](CCC(=O)O)C(=O)N[C@H](C(=O)N[C@@H](Cc1ccccc1)C(=O)N[C@@H](CCCCN)C(=O)N[C@@H](CO)C(=O)N[C@H](C(=O)N[C@@H](CCSC)C(=O)N[C@@H](CCCCN)C(=O)N[C@@H](CCCCN)C(=O)N[C@@H](CO)C(=O)N1CCC[C@H]1C(=O)N[C@@H](Cc1ccccc1)C(=O)N[C@@H](CC(N)=O)C(=O)NCC(=O)N1CCC[C@H]1C(=O)O)[C@@H](C)CC)[C@@H](C)O)[C@@H](C)O | NF-kappa-B inhibitor alpha (Homo sapiens, UniProt P25963) | binding, ITC |  | pH 7.5, 293 K, 50 mM NaCl |  | -TΔS | -18.4 ± 0.418 kJ/mol |
| CSCC[C@H](NC(=O)[C@H](CCC(=O)O)NC(=O)[C@H](CCC(N)=O)NC(=O)[C@H](CO)NC(=O)CCCC[C@@H]1SC[C@@H]2NC(=O)N[C@@H]21)C(=O)N[C@H](C(=O)N[C@@H](Cc1c[nH]cn1)C(=O)N[C@@H](CC(C)C)C(=O)N[C@H](C(=O)N[C@@H](CC(N)=O)C(=O)N[C@@H](CCCCN)C(=O)N[C@@H](CCC(=O)O)C(=O)N1CCC[C@H]1C(=O)N[C@@H](CO)C(=O)N[C@@H](CCC(=O)O)C(=O)N[C@H](C(=O)N1CCC[C@H]1C(=O)N[C@@H](CC(=O)O)C(=O)N[C@@H](CCC(N)=O)C(=O)N[C@@H](CS)C(=O)N[C@@H](CCSC)C(=O)N[C@H](C(=O)N[C@@H](C)C(=O)N[C@@H](CC(=O)O)C(=O)N[C@@H](CCC(=O)O)C(=O)O)[C@@H](C)O)[C@@H](C)O)C(C)C)C(C)C | mouse Tiam2 R693A R716A | SPR |  | concentration not given | reference: wild type | relative binding affinity | 4% |
| O=C(O)c1ccc(Nc2ncc3c(n2)-c2ccc(Cl)cc2C(c2c(F)cccc2F)=NC3)cc1 | Met(h) | kinase activity |  | 1 µM |  | remaining activity | 140% |
| O=c1nc(SCc2cc(F)cc(C(F)(F)F)c2)nc(SCc2ccc3nc(Cl)ccc3c2)[nH]1 | DNA topoisomerase 2-alpha (TOP2A, Homo sapiens, UniProt P11388) | decatenation |  | 125 µM, replicate 2 |  | decatenated DNA | 0% |
| c1cnn2ncc(-c3ccnc(N4CCC45COC5)n3)c2c1 | Tyrosine-protein kinase ABL1 (ABL1, Homo sapiens, UniProt P00519, F317L) | KINOMEscan |  | 1 µM | reference: control | remaining binding | 55% |
| N[C@@H](Cc1c[nH]c2ccccc12)C(=O)O | Transcription attenuation protein MtrB (mtrB, Geobacillus stearothermophilus, UniProt Q9X6J6) | isothermal titration calorimetry |  | concentration not given, 25 °C, one-site model |  | binding stoichiometry | 11.05 ± 0.03 |
| CCN1CCC2(CC1)NC(=O)c1c(c3ccc(Cl)c(Cl)c3n1C)C2C#N (racemic) | Serine/threonine-protein kinase VRK3 (VRK3, Homo sapiens, UniProt Q8IV63) | thermal stability, thermal shift |  | 10 µM | higher = stronger binding | delta Tm | -0.1 °C |
| O=C(COP(=O)(O)O)[C@@H](O)[C@H](O)[C@H](O)COP(=O)(O)O | Ribose-phosphate pyrophosphokinase 1 (PRPS1, Homo sapiens, UniProt P60891) | thermal proteome profiling | HepG2 cell lysate | concentration not given, 57 over 37 °C, mean | reference: compound over control | thermal stability ratio | 2.46 |
| Nc1ccc(C(=O)O)cc1 | BEST1, with wild-type BEST1 (Homo sapiens, UniProt O76090, Q293K) | ion current, whole-cell patch clamp | HEK293 co-expressing mutant and wild-type | concentration not given, voltage -40 mV |  | current density | -6.08 pA/pF and -1.75 pA/pF and -4.78 pA/pF and -6.33 pA/pF and -4.93 pA/pF and -15.7 pA/pF |
| O=C1C[C@@H](c2ccccc2)Oc2cc(O)cc(O)c21 | Aryl hydrocarbon receptor (Danio rerio, UniProt Q9YGV3) | reporter gene, agonist, luciferase reporter | ZF-4 | 123.5 µM | reference: vehicle control | fold change | 1.5 |
